Measurements of several laboratories.
± marks the error that the study gave.
Organism: Plasmodium falciparum

The EC50 of CC[C@](O)(c1cnc(C(F)(F)F)c(Cl)c1)c1c2ccn(C3CC3)c(=O)c2nn1C is reported as 398 nM (parasite growth; 3D7).
For CCN(c1ccc(C)cc1)c1ccc(NC(=O)CN(C)c2ccccc2N2CCCC2=O)cn1, the EC50 was 766 nM (female gamete formation; NF54 stage V gametocytes; 48 h).
With Cn1nc2c(=O)n(C3CC3)cnc2c1[C@](O)(c1cnc(C(F)(F)F)c(Cl)c1)C(F)(F)F the EC50 was 1.7 nM (parasite growth).
The EC50 of O=[N+]([O-])c1ccc(Nc2ccnc3ccc(-c4ccc(S(=O)(=O)N5CCOCC5)cc4)cc23)cn1 is reported as 680 nM (parasite growth, SYBR Green; W2).
For COCC(=O)N1CCC[C@H](C(=O)NCc2nc(-c3ccc(NC4CCC4)nc3)cs2)C1, the EC50 was 100 ± 26 nM (SYBR Green growth; asexual blood-stage parasites, 3D7; 72 h).
With O=S(=O)(c1ccc(-c2ccc3nccc(Nc4cccnc4)c3c2)cc1)N1CCOCC1 the EC50 was 490 nM (parasite growth, SYBR Green; D6).
N#Cc1ccc(-c2csc(CNC(=O)[C@H]3CCCN(C(=O)N4CCCO4)C3)n2)cc1 gave an EC50 of 8.8 ± 1.9 nM (SYBR Green growth; asexual blood-stage parasites, 3D7; 72 h).
The EC50 of CCn1ccc2c([C@](O)(c3ccc(C(F)(F)F)nc3)C3CC3)n(C)nc2c1=O is reported as 7.94 nM (parasite growth; 3D7).
CCOCC(=O)N1CCC[C@H](C(=O)NCc2nc(-c3ccc(C)nc3)cs2)[C@@H]1C has an EC50 of 9.3 ± 2.9 nM (parasite growth, SYBR Green; 3D7, asexual blood stage; 72 h).
For O=S(=O)(c1ccc(-c2ccc3nccc(Nc4ccc5[nH]nnc5c4)c3c2)cc1)N1CCOCC1, the EC50 was 180 nM (parasite growth, SYBR Green; TM91C235).
The EC50 of COc1cc(C(=O)N(C)C)ccc1-c1cc2nccc(-c3ccc4ccncc4c3)c2o1 is reported as 221 nM ([3H]-hypoxanthine incorporation; Dd2; 72 h).
COCC(=O)N1CC[C@H](C(=O)NCc2nc(-c3ccccc3)cs2)C1 has an EC50 of greater than 5000 nM (SYBR Green growth; asexual blood-stage parasites, 3D7; 72 h).
The EC50 of CCN1CCN(Cc2ccc(Nc3nc4nc(Oc5ccnc(NC(C)=O)c5)ncc4[nH]3)cc2C(F)(F)F)CC1 is reported as 800 ± 100 nM (parasite growth, SYBR Green I; Dd2; 72 h).
Cn1nc2c(=O)n(C3CC3)ncc2c1[C@](N)(c1ccc(C(F)(F)F)c(Cl)c1)C1CC1 has an EC50 of 8.6 nM (parasite growth).
N[C@@H](COCC(=O)N1CCC[C@H](C(=O)NCc2nc(-c3ccc(C(F)(F)F)cc3)cs2)C1)c1ccccc1 gave an EC50 of 3.4 ± 2.4 nM (SYBR Green growth; asexual blood-stage parasites, 3D7; 72 h).
The EC50 of Cc1cc(Nc2ccc(S(F)(F)(F)(F)F)cc2)n2nc(C(C)(F)F)nc2n1 is reported as 2.3 nM (72 h).
For O=S(=O)(c1ccc(-c2ccc3nccc(Nc4ccncc4)c3c2)cc1)N1CCOCC1, the EC50 was 270 nM (parasite growth, SYBR Green; D6).
For COCC(=O)N1CCC[C@H](C(=O)NCc2nc(-c3ccc(C(=O)N(C)C)cc3)cs2)C1, the EC50 was greater than 5000 nM (parasite growth, SYBR Green; 3D7, asexual blood stage; 72 h).
Cc1c(Cc2ccc(C(F)(F)F)nc2)c[nH]c1C(=O)N[C@@H](C)CO gave an EC50 of 2100 nM (parasite growth; 3D7).
With Cc1noc(C)c1Nc1ccnc2ccc(-c3ccc(S(=O)(=O)N4CCOCC4)cc3)cc12 the EC50 was greater than 20000 nM (parasite growth, SYBR Green; W2).
For CCn1cc(-c2nc(C)no2)c(=O)c2cc(F)c(N3CCC(C)CC3)cc21, the EC50 was 7 nM (parasite growth, [3H]hypoxanthine incorporation; K1; 72 h).
For COc1ncc(Nc2ccnc3ccc(-c4ccc(S(=O)(=O)N5CCOCC5)cc4)cc23)cn1, the EC50 was 1600 nM (parasite growth, SYBR Green; W2).
NC[C@H](OCC(=O)N1CCC[C@H](C(=O)NCc2nc(-c3ccc(C(F)(F)F)cc3)cs2)C1)c1ccccc1 has an EC50 of 400 ± 97 nM (SYBR Green growth; asexual blood-stage parasites, 3D7; 72 h).

Repeated from above:
Cc1c(Cc2ccc(C(F)(F)F)nc2)c[nH]c1C(=O)N[C@@H](C)CO gave an EC50 of 2100 nM (parasite growth; 3D7).
With Cc1noc(C)c1Nc1ccnc2ccc(-c3ccc(S(=O)(=O)N4CCOCC4)cc3)cc12 the EC50 was greater than 20000 nM (parasite growth, SYBR Green; W2).
For CCn1cc(-c2nc(C)no2)c(=O)c2cc(F)c(N3CCC(C)CC3)cc21, the EC50 was 7 nM (parasite growth, [3H]hypoxanthine incorporation; K1; 72 h).
